# Assay results collected from several papers.
# Parts stem from different laboratories: compare values within a part only.

# Sample 1
# Method: logD(dd/w) and ALogP
# Setting: MRN method
Structure (SMILES),lipophilic permeability efficiency
CC(C)C[C@@H]1NC(=O)[C@H](Cc2ccc(O)cc2)NC(=O)[C@H]2CCCN2C(=O)[C@H](CC2CCCCC2)NC(=O)[C@H](CC2CCCCC2)NC(=O)[C@@H](CC(C)C)NC1=O,0.085
CC[C@@H]1NC(=O)[C@@H](CC)NC(=O)[C@H](CC(C)C)NC(=O)[C@H](Cc2ccccc2)NC(=O)[C@H]2CCCN2C(=O)[C@H](CC(C)C)NC1=O,1.7
CCC[C@@H]1C(=O)N(C)[C@@H](C)C(=O)N[C@@H](CC(C)C)C(=O)N2CCC[C@@H]2C(=O)N(C)[C@@H](C)C(=O)N[C@@H](CC(C)C)C(=O)N1C,3.76
CC(C)C[C@@H]1NC(=O)[C@H](C)N(C)C(=O)[C@H]2CCCN2C(=O)[C@H](CC(C)C)NC(=O)[C@H](C)N(C)C(=O)[C@@H](C)N(C)C1=O,3.83
CC(C)C[C@@H]1NC(=O)[C@H](Cc2ccccc2)NC(=O)[C@H]2CCCN2C(=O)[C@H](CC(C)C)NC(=O)[C@H](CC(C)C)NC(=O)[C@@H](CC(C)C)NC1=O,1.99
CC(C)C[C@@H]1NC(=O)[C@H](Cc2ccc(O)cc2)N(C)C(=O)[C@H]2CCCN2C(=O)[C@H](CC(C)C)NC(=O)[C@H](CC(C)C)N(C)C(=O)[C@@H](Cc2ccccc2)N(C)C1=O,1.72

# Sample 2
# SMILES: CN(C)c1ccc(C=C2C(=O)Nc3ccccc32)cc1
# Observed: enzyme activity
# Mode: inhibitor
# Method: radiometric
target,IC50 [nM]
"BDNF/NT-3 growth factors receptor (NTRK2, Homo sapiens, UniProt Q16620)",487
"Platelet-derived growth factor receptor alpha (PDGFRA, Homo sapiens, UniProt P16234)",> 30000
"NT-3 growth factor receptor (NTRK3, Homo sapiens, UniProt Q16288)",82
"High affinity nerve growth factor receptor (NTRK1, Homo sapiens, UniProt P04629)",1830

# Sample 3
# Species: human
# Sample: microsomes or S9
# Concentration: 2 µM
# Time: 0.5 h
Structure (SMILES),remaining compound [%]
Cc1ccc(C2c3cccn3-c3sc4c(c3CN2C(=O)Nc2ccc(F)cc2F)CCCC4)cc1 (centres unmarked),57.2
O=C1CC(c2ccc3c(c2)OCO3)c2c(n[nH]c2-c2ccccc2)N1 (centres unmarked),22.4
O=c1[nH]cccc1-c1nc(-c2cccc(Br)c2)no1,66.9
CN1CCCC2(CCN(C3CCN(c4ccc(F)c(F)c4)CC3)C2)C1=O (centres unmarked),71.8
CC(C)(C)C(=O)/C=C1\NCCN\C1=C/C(=O)C(C)(C)C,53.7
CCCS(=O)(=O)N1CCN(S(=O)(=O)c2ccc(NC(C)=O)cc2)CC1,22.5
Cn1c(=O)n(Cc2ccc(-c3ccccc3C#N)cc2)c2ccccc21,9.8
COc1cc(-c2nc3c(s2)CNCC3)cc(OC)c1OC,> 99.9

# Sample 4
# Organism: Sarcocystis neurona
# Observed: parasite growth
# Concentration: 10 µM
# Time: 96 h
# Setting: second screen
# Baseline: untreated
SMILES,log2 fold change
CC(=O)NS(=O)(=O)c1ccc(N)cc1,0.11
CN(C)CCOC(C)(c1ccccc1)c1ccccn1 (centres unmarked),0.31
CC[C@H]1OC(=O)[C@H](C)C(=O)[C@H](C)[C@@H](O[C@@H]2O[C@H](C)C[C@H](N(C)C)[C@H]2O)[C@](C)(OC)C[C@@H](C)C(=O)[C@H](C)[C@H]2N(CCCCn3cnc(-c4cccnc4)c3)C(=O)O[C@]12C,0.27
COC(=O)C1=C(C)NC(C)=C(C(=O)OCCN(C)Cc2ccccc2)C1c1cccc([N+](=O)[O-])c1 (centres unmarked),0.43
COc1cc([C@@H]2c3cc4c(cc3[C@H](O)[C@H]3COC(=O)[C@H]23)OCO4)cc(OC)c1OC,-0.0165
CCCC1O[C@@H]2C[C@H]3[C@@H]4CCC5=CC(=O)C=C[C@]5(C)[C@H]4[C@@H](O)C[C@]3(C)[C@]2(C(=O)CO)O1 (some centres unmarked),0.17
N[C@@H](Cc1cc(I)c(Oc2cc(I)c(O)c(I)c2)c(I)c1)C(=O)O,0.6
O=C(CCCN1CC=C(n2c(=O)[nH]c3ccccc32)CC1)c1ccc(F)cc1,0.0285

# Sample 5
# SMILES: C[C@@H]1CN(c2cc(-c3n[nH]c4ccc(OC5(C)CC5)cc34)ncn2)C[C@H](C)O1
# Observed: cell-free assay
# Method: competition with immobilised ligand
# Concentration: 0.1 µM
target,remaining binding [%]
"RAF proto-oncogene serine/threonine-protein kinase (RAF1, Homo sapiens, UniProt P04049)",100
"Phosphatidylinositol 4,5-bisphosphate 3-kinase catalytic subunit alpha isoform (PIK3CA, Homo sapiens, UniProt P42336, E545A)",76
"Testis-specific serine/threonine-protein kinase 3 (TSSK3, Homo sapiens, UniProt Q96PN8)",79
"ALK tyrosine kinase receptor (ALK, Homo sapiens, UniProt Q9UM73, C1156Y)",89
"LIM domain kinase 2 (LIMK2, Homo sapiens, UniProt P53671)",91
"Serine/threonine-protein kinase Nek11 (NEK11, Homo sapiens, UniProt Q8NG66)",100
"TGF-beta receptor type-1 (TGFBR1, Homo sapiens, UniProt P36897)",100
"Mitogen-activated protein kinase 10 (MAPK10, Homo sapiens, UniProt P53779)",77
"Mitogen-activated protein kinase kinase kinase 1 (MAP3K1, Homo sapiens, UniProt Q13233)",63
"MAP kinase-interacting serine/threonine-protein kinase 2 (MKNK2, Homo sapiens, UniProt Q9HBH9)",74
"Receptor-type tyrosine-protein kinase FLT3 (FLT3, Homo sapiens, UniProt P36888, D835H)",100
"Protein-tyrosine kinase 6 (PTK6, Homo sapiens, UniProt Q13882)",100
"Tyrosine-protein kinase TXK (TXK, Homo sapiens, UniProt P42681)",80
"Ribosomal protein S6 kinase alpha-6, N-terminal kinase domain (RPS6KA6, Homo sapiens, UniProt Q9UK32)",77
"Activin receptor type-2A (ACVR2A, Homo sapiens, UniProt P27037)",94
"Mitogen-activated protein kinase 15 (MAPK15, Homo sapiens, UniProt Q8TD08)",81
"Serine/threonine-protein kinase 10 (STK10, Homo sapiens, UniProt O94804)",83
"Myosin light chain kinase family member 4 (MYLK4, Homo sapiens, UniProt Q86YV6)",100
"Serine/threonine-protein kinase MRCK alpha (CDC42BPA, Homo sapiens, UniProt Q5VT25)",90
"Epidermal growth factor receptor (EGFR, Homo sapiens, UniProt P00533, L858R/T790M)",84
"Serine/threonine-protein kinase LATS1 (LATS1, Homo sapiens, UniProt O95835)",96

# Excerpt of the above (sample 4):
SMILES,log2 fold change
CN(C)CCOC(C)(c1ccccc1)c1ccccn1 (centres unmarked),0.31
CC[C@H]1OC(=O)[C@H](C)C(=O)[C@H](C)[C@@H](O[C@@H]2O[C@H](C)C[C@H](N(C)C)[C@H]2O)[C@](C)(OC)C[C@@H](C)C(=O)[C@H](C)[C@H]2N(CCCCn3cnc(-c4cccnc4)c3)C(=O)O[C@]12C,0.27
COC(=O)C1=C(C)NC(C)=C(C(=O)OCCN(C)Cc2ccccc2)C1c1cccc([N+](=O)[O-])c1 (centres unmarked),0.43
COc1cc([C@@H]2c3cc4c(cc3[C@H](O)[C@H]3COC(=O)[C@H]23)OCO4)cc(OC)c1OC,-0.0165
CCCC1O[C@@H]2C[C@H]3[C@@H]4CCC5=CC(=O)C=C[C@]5(C)[C@H]4[C@@H](O)C[C@]3(C)[C@]2(C(=O)CO)O1 (some centres unmarked),0.17
N[C@@H](Cc1cc(I)c(Oc2cc(I)c(O)c(I)c2)c(I)c1)C(=O)O,0.6
O=C(CCCN1CC=C(n2c(=O)[nH]c3ccccc32)CC1)c1ccc(F)cc1,0.0285
